Experimental data gathered from unrelated publications.
Compare with care: the assays were run in different laboratories. Numbers after ± are the reported error.

COc1cc2ccnc(Cc3ccc(O[11CH3])c(OC)c3)c2cc1OC  tissue uptake (Sprague-Dawley rats, fat; intravenous, 0.08333 h): 0.124 ± 0.02 %ID/g
CN[C@](C)(C[18F])C(=O)O  tissue uptake (SCID mouse U87 xenograft, kidney; 30 min, post injection): 9.2 ± 2.1 %ID/g
C=Cc1cc(O)cc2nc(-c3ccc(O)c([76Br])c3)oc12  tissue uptake (female C57BL/6 mouse, lung; 3 h, high dose, together with: estradiol 20 µg blocking): 0.15 ± 0.05 %ID/g
C[S]1CC[S]2CC[P](CO)(CO)[99Tc+]12.[C-]#[O+].[C-]#[O+].[C-]#[O+]  tissue uptake (CF-1 mice, female, urine; intravenous, 24 h): 68.1 %ID
N=C(N)NCc1ccc(C(=O)NCCCC[C@H](NC(=O)CCCCCCC(=O)NCCCC[C@H](NC(=O)N[C@@H](CCC(=O)O)C(=O)O)C(=O)O)C(=O)O)cc1[131I]  tissue uptake (SCID mouse, PC-3 xenografts, kidneys; 2 h): 110 ± 37 %ID/g
CCCC[C@H](NC(=O)CN1CCC(NC(=O)CN2CCC(NC(=O)CN3CCN(CC(=O)O)CCN(CC(=O)O)CCN(CC(=O)O)CC3)CC2)CC1)C(=O)N[C@H]1CC(=O)NCCCC[C@@H](C(N)=O)NC(=O)[C@H](Cc2c[nH]c3ccccc23)NC(=O)[C@H](CCCNC(=N)N)NC(=O)[C@@H](Cc2ccccc2)NC(=O)[C@H](Cc2c[nH]cn2)NC1=O [gallium-68 labelled]  tissue uptake (C57BL/6J mice male B16-F10 tumour, intestine; 1 h post injection, unblocked): 0.7 ± 0.5 %ID/g
O=C(c1ccc(F)cc1)C1CCN(C2Cc3c(cccc3OCC[18F])CC2O)CC1 (single isomer, unassigned; (-))  tissue uptake (Sprague-Dawley rat, male, pancreas; intravenous, dose not given, 60 min): 1.32 ± 0.346 %ID/g
O=C(O)CC[C@H](NC(=O)O[C@@H](CCCCNC(=O)c1ccc([18F])cc1)C(=O)O)C(=O)O  tissue uptake (mouse, PC-3 PIP/flu xenografts, muscle; 90 min): 0.06 ± 0.01 %ID/g
N=C(N)NCc1ccc(C(=O)NCCCC[C@H](NC(=O)N[C@@H](CCC(=O)O)C(=O)O)C(=O)O)cc1[131I]  tissue uptake (SCID mouse, PC-3 xenografts, spleen; 14 h): 0.5 ± 0.2 %ID/g
COc1cc2ncnc(Oc3cccc(N[11C](=O)Nc4cc(C(C)(C)C(F)(F)F)on4)c3)c2cc1OC  tissue uptake (Balb/c nude mouse, female, A375 melanoma xenograft, kidney; 6.6 MBq, 30 min): 6.82 ± 0.27 %ID/g
CC(C)C[C@@H](NC(=O)[C@@H](CCCNC(=N)N)NC(=O)[C@@H](Cc1c[nH]cn1)NC(=O)[C@@H](Cc1c[nH]c2ccccc12)NC(=O)[C@@H](Cc1c[nH]cn1)NC(=O)[C@@H](Cc1ccccc1)NC(=O)[C@H](NC(=O)[C@@H](Cc1ccc(O)cc1)NC(=O)CNC(=O)CNC(=O)CCOCCOCCOCCNC(=O)CN1CCN(CC(=O)O)CCN(CC(=O)O)CC1)[C@H](C)O)C(=O)N[C@H](CC(N)=O)C(=O)N1CCC[C@@H]1C(=O)O [gallium-68 labelled]  tissue uptake (γ-counting; male C57BL/6 mice, kidney; intravenous, 1.85 MBq, 60 min): 42.3 ± 3.52 %ID/g
N=C(N)NCc1ccc(C(=O)NCCCC[C@H](NC(=O)CCCCCCC(=O)NCCCC[C@H](NC(=O)N[C@@H](CCC(=O)O)C(=O)O)C(=O)O)C(=O)O)cc1[211At]  tissue uptake (SCID mouse, PC-3 xenografts, blood; 2 h): 0.35 ± 0.03 %ID/g
CCNc1cc2[o+]c3cc(NCC)c(C)cc3c(-c3ccccc3C(=O)OCCOCC[18F])c2cc1C  tissue uptake (rat, mandibular gland; 60 min): 2.01 ± 0.31 %ID/g

Some of these lines once more:
COc1cc2ncnc(Oc3cccc(N[11C](=O)Nc4cc(C(C)(C)C(F)(F)F)on4)c3)c2cc1OC  tissue uptake (Balb/c nude mouse, female, A375 melanoma xenograft, kidney; 6.6 MBq, 30 min): 6.82 ± 0.27 %ID/g
O=C(c1ccc(F)cc1)C1CCN(C2Cc3c(cccc3OCC[18F])CC2O)CC1 (single isomer, unassigned; (-))  tissue uptake (Sprague-Dawley rat, male, pancreas; intravenous, dose not given, 60 min): 1.32 ± 0.346 %ID/g
